Assay results of several laboratories.
Each line is one published result; not all experiments were run side by side.
Organism: Acinetobacter baumannii

| Compound | test | system | conditions | scale | MIC |
| --- | --- | --- | --- | --- | --- |
| Nc1nc(-c2ccc(NC(=O)c3cc(Cl)cc(Cl)c3)cc2)c[nH]1 | microbial growth, broth dilution | AB5075 | – | – | 100 µM |
| COc1ccc2ccc3c(c2c1)C=[N+]1C2CCCCC2[N+]2=Cc4c(OC)cccc4[O][Au-]21[O]3.F[P-](F)(F)(F)(F)F (stereo not shown) | bacterial growth, broth microdilution | carbapenem-resistant clinical isolate | 24 h | – | > 20 µM |
| C=CCCNS(=O)(=O)c1ccc(-n2nnc(/C(C)=N/NC(=N)N)c2C)cc1 | microbial growth, broth dilution | AB5075 | – | – | > 64 µg/mL |
| COc1c(NC(=O)c2ccc(NC(=O)c3ccc(NC(=O)[C@H](CC#N)NC(=O)c4ccc(NC(=O)/C(C)=C/c5ccc(O)cc5)cc4)cc3)c(OC)c2O)ccc(C(=O)O)c1O | microbial growth | DSM30008 | – | – | > 64 µg/mL |
| CC(C)C[C@H](NC(=O)[C@H](CC(N)=O)NC(=O)[C@H](CCCNC(=N)N)NC(=O)[C@@H](CC(C)C)NC(=O)[C@H](Cc1ccc(C(F)(F)F)cc1)NC(=O)[C@H](CC(=O)O)NC(=O)[C@H](CCCCN)NC(=O)[C@@H](CC(C)C)NC(=O)[C@H](CCCNC(=N)N)NC(=O)[C@H](CCC(N)=O)NC(=O)[C@@H](NC(=O)[C@@H](CC(C)C)NC(=O)[C@H](CCCNC(=N)N)NC(=O)[C@H](CCCCN)NC(=O)[C@H](Cc1ccc2ccccc2c1)NC(=O)CN)C(C)C)C(=O)N[C@H](C(N)=O)C(C)C | broth microdilution | B2367-12 | – | – | 3.1 µM |
| NC[C@@H]1O[C@H](O[C@H]2[C@@H](O)[C@H](O[C@@H]3[C@@H](O)[C@H](N)C[C@H](N)[C@H]3O[C@H]3O[C@H](CO)[C@@H](SCCF)[C@H](O)[C@H]3N)O[C@@H]2CO)[C@H](N)[C@@H](O)[C@@H]1O | – | reference strain | – | – | 8 to 16 µg/mL |
| CCn1[c]([Au-]([Cl])([Cl])[Cl])[n+](CC)c2ccc(C(=O)OC)cc21 | broth dilution | DSM 30007 | 20 h, 37 °C | – | 7.5 µM |
| O=C(NCCNCCO)c1cn(Cc2ccccc2)c2c(Cl)c(OCc3ccc(C(F)(F)F)cc3)c(Cl)cc2c1=O | – | ATCC 19606 | – | ≥80% growth inhibition | > 32 µg/mL |
| CC[C@@H](C)[C@@H](NC(=O)[C@@H](C)NC(=O)[C@@H](CCCCN)NC(=O)[C@@H](CC(C)C)NC(=O)[C@@H](CC(C)C)NC(=O)[C@H](NC(=O)[C@@H](CCCCN)NC(=O)[C@@H](CC(C)C)NC(=O)[C@@H](CCCCN)NC(=O)[C@@H](CCCCN)NC(=O)[C@@H](CCCCN)NC(=O)[C@@H](CCCCN)NC(=O)[C@@H](C)NC(=O)[C@@H](CCCCN)NC(=O)[C@@H](CO)NC(=O)[C@@H](Cc1ccccc1)NC(=O)[C@H](NC(=O)[C@@H](CCCCN)NC(=O)[C@@H](CC(C)C)NC(=O)[C@@H](Cc1ccccc1)NC(=O)[C@@H](CO)NC(=O)[C@@H](CCCCN)NC(=O)[C@@H](Cc1c[nH]c2ccccc12)NC(=O)[C@@H](CCCCN)NC(C)=O)[C@H](C)O)[C@H](C)O)C(=O)N[C@H](CO)C(=O)N[C@H](CCCCN)C(N)=O | – | 964, Mueller-Hinton broth | 24 h, 37 °C | – | 1.2 µM |
| COc1ccc2ccc3c(c2c1)C=[N+]1C2CCCCC2[N+]2=Cc4cccc(F)c4[O][Au-]21[O]3.F[P-](F)(F)(F)(F)F (stereo not shown) | bacterial growth, broth microdilution | carbapenem-resistant clinical isolate | 24 h | – | > 20 µM |
